Results from different studies.
Numbered parts are unrelated; each lists some results of a single study.

Block 1
Target: RING finger protein unkempt homolog, zinc fingers 1-6, GST-SBP tag (UNK, Homo sapiens, UniProt Q9C0B0, residues 30-357)
Technique: RNA Bind-n-Seq
Molecule type: RNA
Matrix: in vitro
Concentration: not given
Notes: RNA with constant flanks, human-mouse chimeric sites, ends assumed
Reference: input RNA pool
Reading: higher = stronger binding
Quantity: bound/input enrichment
Residues (chain): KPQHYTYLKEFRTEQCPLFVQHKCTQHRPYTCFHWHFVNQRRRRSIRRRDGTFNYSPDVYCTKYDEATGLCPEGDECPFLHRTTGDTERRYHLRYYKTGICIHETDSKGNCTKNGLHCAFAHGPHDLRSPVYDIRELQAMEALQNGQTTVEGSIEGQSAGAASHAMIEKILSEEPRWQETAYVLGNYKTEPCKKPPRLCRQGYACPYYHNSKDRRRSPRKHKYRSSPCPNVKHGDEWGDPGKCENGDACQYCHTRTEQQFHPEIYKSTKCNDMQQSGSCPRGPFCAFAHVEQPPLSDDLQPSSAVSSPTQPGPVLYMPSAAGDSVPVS
Sequence = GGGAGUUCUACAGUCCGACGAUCAGGAGGAGGUUAAAGGGUGAGAGUGGGGUGGAAGACUGUGUCAUGGCUCUGGAGACACUGUUCAGUGUCCUGCUUUCUCUGUGCAGACUUAUGGCUCCUUACACGCCUUUUCUCACUGAGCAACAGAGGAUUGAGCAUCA; result = 0.0986 ratio
Sequence = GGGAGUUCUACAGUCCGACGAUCAGAGAAAUGAGAAAGAAUCUUACACAAGAUGAGAUGCAAAGAAUGUCUACUAGAGUCCUUUUGGCGACUCUUUCCAUUCCUAUUACUCCUGAGCGAACUGAUAUUGCUCGACUUUUGGAUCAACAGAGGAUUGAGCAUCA; result = 0.157 ratio
Sequence = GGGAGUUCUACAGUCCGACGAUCACCUCCCCCUCCCGCCUCACCCCACCCCCGCUUUUUGGAAAGUUUUUGGCGUUUCUUUUCCUUCCCCAUACAAAGUGGUUUUUACCACCCCCGCAAGGGUCUAUCGAUUCACCCUUCGGACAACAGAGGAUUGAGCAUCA; result = 0.962 ratio
Sequence = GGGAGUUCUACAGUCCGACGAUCGUCAACAGUUGUCUCAACCCCAUCCUCUACGCCUUCCUGGAUGAGAACUUCAAGGCCUGCUUCCGCAAGUUCUGCUGUGCAUCUGCCCUGCACCGGGACGUGCAGGUGUCUGACCGCGUGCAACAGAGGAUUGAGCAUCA; result = 0.409 ratio
Sequence = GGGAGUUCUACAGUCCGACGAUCUUACCCGAGAACGAGGAUGAGCUGGAGAGCACCAACAGGCGCUACACCAAGAGGGACUGCAGCACUUUCCUCAGAACUAGUGAGACGGGCAUUGUGGACCAGGUCAUGGUCACUCUCAACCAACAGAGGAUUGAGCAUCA; result = 0.111 ratio
Sequence = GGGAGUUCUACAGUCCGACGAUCAACUUCGUGCAUCGGUUUCCCUUUGUAGCUGUUUCAAUUGGCUUCCUUGUAAAUAAAGAGAUGGAGUUUGGAAUUGUGUACAGUUGUGUGGAAGAUAAGAUGUACACCGGCAGGAAAGGGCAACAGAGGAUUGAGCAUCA; result = 0.373 ratio
Sequence = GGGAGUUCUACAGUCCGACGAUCAUCCAGUACUCGAAUCACAAAGAACUAAAGACAGAUAAUACAUUAAACCAACGUGCGCAAGUAGUUCUUCAAGCUGUGACAGCUGUCCAGACAGCAAAUACUCCUCUUAGUGGCACCACACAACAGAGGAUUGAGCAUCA; result = 0.42 ratio
Sequence = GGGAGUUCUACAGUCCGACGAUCAGGAGGAGGUUAAAGGGUGAAAAUGGGGUGGAAGACUGUGUCAUGGCUCUGGAGACAUUGUUUAGUGUCCUGCUUUCUCUGUGCAGACUGAUGGCCCCUUACACGCCCUUUCUGACUGAGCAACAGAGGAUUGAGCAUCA; result = 0.0869 ratio
Sequence = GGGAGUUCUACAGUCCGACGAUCAAAGCCCAAGUAUUUUGAAAAAACUCGAACAGAUUUAACAAGGGUAGCCAGCUUGGAGUCUAGCAACUUGCCAAUGUGUUUACCAAUCUGGGGGCUUGUUUUUCUUUUCUUCUUUCAAAUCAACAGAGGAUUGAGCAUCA; result = 0.314 ratio
Sequence = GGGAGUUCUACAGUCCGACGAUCAACGUGGAGUUGAGUUCCUUGGCCCGGCUUCCCAGCUUGAAUAAACUUCGAAAAUUGGAGCUUAGUGACAAUAUAAUUUCUGGAGGCUUGGAAGUCCUGGCAGAGAAAUGUCCAAAUCUUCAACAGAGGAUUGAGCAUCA; result = 0.179 ratio
Sequence = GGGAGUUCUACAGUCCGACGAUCUCAUUUUUCUCUUUUCUUUCUUUCCUUUAGGAAAAGCAGAUUAGACUGUAAGAAAAGAAAACAGAAGCCAUGUUUCGAAGACCUGUGUUACAGGUAUUUCGUCAGUUUGUAAGACAUGAGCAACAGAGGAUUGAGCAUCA; result = 0.237 ratio

Block 2
Target: Prothrombin, mature alpha-thrombin (F2, Homo sapiens, UniProt P00734)
Technique: aptamer microarray, sandwich
Molecule type: DNA with 2'F-ANA
Matrix: in vitro
Concentration: 200 nM
Notes: whole 15-mer aptamer, many near background
With: Cy3 exosite-II aptamer, 400 nM
Reading: higher = stronger binding
Quantity: mean fluorescence intensity
Sequence: GGTTGGTGTGGTTGG
Modification = 2'F-ANA at 1 4 5 6 9 10 13; result = 50 a.u.
Modification = 2'F-ANA at 1 5 11; result = 51.3 a.u.
Modification = 2'F-ANA at 1 4 5 6 8 9 10; result = 47.1 a.u.
Modification = 2'F-ANA at 3 4 5 6 7 13 14; result = 134 a.u.
Modification = 2'F-ANA at 1 3 5 7 9 11 12 15; result = 98.3 a.u.
Modification = 2'F-ANA at 7 11 13; result = 533 a.u.
Modification = 2'F-ANA at 3 5 6 7 10 14 15; result = 57.7 a.u.
Modification = 2'F-ANA at 5 6 8 10 11 13 14; result = 95.7 a.u.
Modification = 2'F-ANA at 6 8 11 12 14; result = 183 a.u.
Modification = 2'F-ANA at 1 2 3 5 6 8 9 11 12 13 14; result = 50.4 a.u.
Modification = 2'F-ANA at 5 6 7 9; result = 74.7 a.u.
Modification = 2'F-ANA at 3 4 5 6 7 13; result = 81.7 a.u.
Modification = 2'F-ANA at 1 4 6 7 8 9 10 11 12 15; result = 72.5 a.u.
Modification = 2'F-ANA at 2 5 6 8 10 13 14 15; result = 47.6 a.u.
Modification = 2'F-ANA at 1 2 3 5 6 7 8 10 12 13 14; result = 50.9 a.u.
Modification = 2'F-ANA at 1 5 6 8 10 11 12 13 14; result = 47.4 a.u.
Modification = 2'F-ANA at 2 4 5 12 13; result = 118 a.u.
Modification = 2'F-ANA at 1 4 10 11 14 15; result = 56.4 a.u.
Modification = 2'F-ANA at 2 3 4 5 7 9 10 12 13 15; result = 56 a.u.
Modification = 2'F-ANA at 1 3 4 7 9 11 12 14 15; result = 75.3 a.u.
Modification = 2'F-ANA at 1 4 8 11 15; result = 119 a.u.
Modification = 2'F-ANA at 1 6 7 10 11 12 14 15; result = 52.7 a.u.
Modification = 2'F-ANA at 3 4 6 7 8 11 12 13 15; result = 570 a.u.
Modification = 2'F-ANA at 4 7 9 10 14; result = 62.8 a.u.
Modification = 2'F-ANA at 1 2 4 5 7 10 12 14; result = 45.1 a.u.

Block 3
Target: Sal-like protein 4, full length isoform A (SALL4, Homo sapiens, UniProt Q9UJQ4, residues 1-1053)
Chain of UniProt Q9UJQ4 (whole entry, looked up): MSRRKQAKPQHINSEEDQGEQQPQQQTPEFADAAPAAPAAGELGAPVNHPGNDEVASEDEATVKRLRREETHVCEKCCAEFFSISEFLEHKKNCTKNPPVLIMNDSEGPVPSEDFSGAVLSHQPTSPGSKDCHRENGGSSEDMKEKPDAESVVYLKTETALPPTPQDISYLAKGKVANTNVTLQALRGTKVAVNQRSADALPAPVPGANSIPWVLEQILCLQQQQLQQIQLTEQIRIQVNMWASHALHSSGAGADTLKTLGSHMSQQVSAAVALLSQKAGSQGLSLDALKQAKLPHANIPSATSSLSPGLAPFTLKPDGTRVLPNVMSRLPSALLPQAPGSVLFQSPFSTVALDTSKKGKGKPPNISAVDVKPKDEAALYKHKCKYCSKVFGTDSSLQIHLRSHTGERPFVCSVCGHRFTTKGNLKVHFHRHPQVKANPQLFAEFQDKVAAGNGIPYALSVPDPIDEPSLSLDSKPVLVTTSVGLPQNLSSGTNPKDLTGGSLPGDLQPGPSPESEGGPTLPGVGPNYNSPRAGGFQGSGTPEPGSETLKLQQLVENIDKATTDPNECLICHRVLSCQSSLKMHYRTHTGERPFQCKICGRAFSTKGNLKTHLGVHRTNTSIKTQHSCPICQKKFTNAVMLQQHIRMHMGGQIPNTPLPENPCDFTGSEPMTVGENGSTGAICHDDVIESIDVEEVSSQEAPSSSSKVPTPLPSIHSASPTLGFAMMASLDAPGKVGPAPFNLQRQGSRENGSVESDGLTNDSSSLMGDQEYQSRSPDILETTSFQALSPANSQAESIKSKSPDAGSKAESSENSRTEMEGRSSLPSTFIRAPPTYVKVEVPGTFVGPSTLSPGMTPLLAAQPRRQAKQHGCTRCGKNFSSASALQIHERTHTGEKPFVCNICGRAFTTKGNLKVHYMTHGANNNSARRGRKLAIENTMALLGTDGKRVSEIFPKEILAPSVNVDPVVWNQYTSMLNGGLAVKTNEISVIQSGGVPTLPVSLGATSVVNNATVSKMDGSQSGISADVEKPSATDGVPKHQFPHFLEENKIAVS
Technique: universal PBM
Molecule type: double-stranded DNA, one strand shown
Matrix: in vitro
Concentration: 600 nM
Notes: 8-mer, flanks averaged, mean of replicates
Reading: higher = stronger binding
Quantity: E-score
Sequence = GGGACTAC; result = -0.0414
Sequence = GCAATTCC; result = -0.0114
Sequence = ACAAAAAT; result = 0.382
Sequence = CGTTGGGC; result = -0.287
Sequence = CGAATTAG; result = 0.0523
Sequence = CCTCGGAA; result = -0.103
Sequence = ATGCATAG; result = 0.144
Sequence = ACACTAGG; result = -0.0441
Sequence = CGTAGAAC; result = -0.158
Sequence = CGTTTAGC; result = -0.0811
Sequence = ACGAACGG; result = 0.00316
Sequence = GACGCCTA; result = -0.273
Sequence = AACTAGAC; result = 0.175
Sequence = CTCGCGAG; result = -0.237
Sequence = GAGGGCCA; result = -0.175
Sequence = ACGCCACG; result = -0.247
Sequence = AATATCAC; result = 0.339
Sequence = CCTATTGC; result = 0.00886
Sequence = GCCACCAA; result = -0.112
Sequence = GACCAACA; result = 0.0544
Sequence = GCATTTGA; result = 0.0557
Sequence = CAGCTGAG; result = -0.108
Sequence = AGATCCTC; result = -0.0878
Sequence = GCGGCCCC; result = -0.347
Sequence = AGCGGACC; result = -0.256

Block 4
Target: RNA binding protein fox-1 homolog 2, RRM domain, GST-SBP tag (RBFOX2, Homo sapiens, UniProt O43251-10, residues 100-194)
Technique: RNA Bind-n-Seq
Molecule type: RNA
Matrix: in vitro
Concentration: 365 nM
Notes: natural RNA segment, single round, ends assumed
Reference: no-protein control
Reading: higher = stronger binding
Quantity: RBNS enrichment (R)
Construct (chain): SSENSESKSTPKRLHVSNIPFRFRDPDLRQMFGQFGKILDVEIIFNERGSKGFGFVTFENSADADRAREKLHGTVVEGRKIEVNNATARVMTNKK
Sequence = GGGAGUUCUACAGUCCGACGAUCUCCCCAAAUAAUGUUACACAUGGCAGUACUCAUGUUCCCCUUGAUUCCCAGGGACGUCGCGCCUUGUUUCUCCUCCCUCUCUGUGUCUGGGGAGGAGGAGCUGAGUCCUGUGGAAUUCUCGGGUGCCAA; result = 3.08
Sequence = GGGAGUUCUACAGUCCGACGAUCGUGUGAUGUCAUGUUUGGUCAUUUUUCUUUUGUCCAGGGAAUGGAUAAUGACAUUCUGUCACCCACCCUUUUGUACAUUUUUCACUUUUUGUUUGUUUCAUCUUUUUCAGUGGAAUUCUCGGGUGCCAA; result = 0.426
Sequence = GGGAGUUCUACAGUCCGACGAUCUCAGGUUUAUAGCUGUUGUGUUUAAAGAUUGAAAAAAGUGGAAAACAUCUUUGUACAUUUAAGUCUGUAUUAUAAUAAGCAAAAAGAUUGUGUGUAUGUAUGUUUAAUAUUGGAAUUCUCGGGUGCCAA; result = 0.722
Sequence = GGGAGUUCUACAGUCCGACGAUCAUCAGACCCUUCAAGCAGCCUGGCUGGGGCCCAGGACUGAGUCUGGGGUCAGCUUUCACGGUCGCUUUUCCCUUCCUCACCACCCACCACAGCCCACCUUGCAUGCAUGGUGGAAUUCUCGGGUGCCAA; result = 3.96
Sequence = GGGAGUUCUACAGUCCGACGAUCCCCCAGUAUUGAUCCCCCACCCUUUUUUGAGACAGGGCAUCCCAGCUGGCGACAACCCUCCUUUCUGCCUUUGACACUCAUGUGCUGGGACUACAGGCACACACCAGUACUGGAAUUCUCGGGUGCCAA; result = 0.876
Sequence = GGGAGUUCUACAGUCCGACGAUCUAUCUUCAGAAGGAAAUGGCAACUAGUAGAUCAGUAAAAUUACGAAAACGAUGCCUGCAAAAUUUGAAGGAAUGCAAUUCUGAUUUGCCAUUUAUCAGGGAAAACUGAAAUGGAAUUCUCGGGUGCCAA; result = 0.739
Sequence = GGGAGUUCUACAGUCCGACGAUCCUGGGAGGGUCACCAGGUCCCUUUUCCUUCCUGUGCCCUCUGAAAGCUAAGUGUCUGUGUGGCUGUGGAGCUCGAGGGUCUGUGAAUAAAGGCGGCGGCACUGGGCGUGGUGGAAUUCUCGGGUGCCAA; result = 1.41
Sequence = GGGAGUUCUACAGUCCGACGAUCCUGGACCUGCACCAAAGCUGGCACCAGGGCUCGGAAGGUCUCUGAACUCAGAAGGAUGGCAUUUUUUGCAAGUUAAAGAAAAUCAGGAUCUGAGUUAUUUUGCUAAACUUUGGAAUUCUCGGGUGCCAA; result = 0.561
Sequence = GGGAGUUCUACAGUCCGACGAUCUUAAGCCGUGGAAAAUGUUCUUGAUCAUUUGCAGUUAAGGACUUUAAAUAAAUCAAAUGUUAACAAAGAGCAUUUCUGUUAUUUUUUUUCACUUAACUAAAUCCGAAGUGUGGAAUUCUCGGGUGCCAA; result = 0.315
Sequence = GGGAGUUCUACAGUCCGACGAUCAAGAAGCAGACUCAAUUCGAGAAUUAAAUGUGUCUGUCAUUGUGUUGAAUUUUGAUUUGUCCUUGGUGGACAACUGGCUUUACCCAGUGAAGAGGGCCAGGACAGAUUGGUGGAAUUCUCGGGUGCCAA; result = 0.393
Sequence = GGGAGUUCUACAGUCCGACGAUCGACUGCUAUUCUAAGAGCAUCAGGGCUCUGAGGGCCAAAGAAGCAAUGGGAGUCCUGAGCUAGUAUAGCUGUGUCACUUAUUAUAAAAGCAUAACUGUUUUUUAUUUGGAUGGAAUUCUCGGGUGCCAA; result = 0.309
Sequence = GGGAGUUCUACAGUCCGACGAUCAGAUGGGCCAGGACAACCAGCAAGACACCUGUUGGGAAGCACCGGGUAUAGAAUCAUAUUUGGUGUUUGCCUGUAAGACAACUAGGGGAGCCCUUUAAGGAAAAGAUCAGUGGAAUUCUCGGGUGCCAA; result = 0.248

Repeated from above (block 3):
Sequence = GCAATTCC; result = -0.0114
Sequence = ACAAAAAT; result = 0.382
Sequence = CGTTGGGC; result = -0.287
Sequence = CGAATTAG; result = 0.0523
